Results of several laboratories.
Each numbered part is a random draw from the data of one study; scales do not carry over between parts. Substitutions count along the parent as printed.

Set 1 — target: CCNE1, cyclin fold, Cln2 fusion (human); method: yeast growth competition, sequencing; medium: yeast; notes: weak parent motif; relative to: not given; direction: higher = stronger binding
Starting sequence: RRM2 docking peptide (human); SKTARRIFQEPTE
Substitution | normalised enrichment score
F8A | 0.0685
E13A | 0.681
R6A | 0.242
K2A | 0.426
E10A | 0.333
P11A | 0.0911

Set 2 — method: RNA Bind-n-Seq; form: RNA; medium: in vitro; concentration: 365 nM; relative to: no-protein control; direction: higher = stronger binding
Target: RNA binding protein fox-1 homolog 2, RRM domain, GST-SBP tag (RBFOX2, Homo sapiens, UniProt O43251-10, residues 100-194)
Notes: natural RNA segment, single round, ends assumed
Residues (chain): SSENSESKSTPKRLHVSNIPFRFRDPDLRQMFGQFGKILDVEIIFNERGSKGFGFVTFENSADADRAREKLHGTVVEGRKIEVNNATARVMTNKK
Oligonucleotide | RBNS enrichment (R)
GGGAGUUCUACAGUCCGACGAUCAUUUCUGGUUGCACCGCGGCGCUUCCCAGCACCAACAUGUAACCGGCAUGUUUCCAGCAGAAGACAAAAAGACAAACAUGAAAGUCUAGAAAUAAAACUGGUAAAACCCCUGGAAUUCUCGGGUGCCAA | 0.227
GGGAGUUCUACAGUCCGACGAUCUUCAAAAAUACGGAGCAGUGCCUAGUAUCUGGAGAGCAGCACUACCAUUUAUUCUUUCAUUUAUAGUUGGGAAAGUUUUUGACGGUACUAACAAAGUGGUCGCAGGAGAUUGGAAUUCUCGGGUGCCAA | 0.383
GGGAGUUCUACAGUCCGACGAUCGCAAGCCGAUCCACACGACCAUCCUGAACCCACACGUGCACGUCAUUGGAGAGGAUGCCGCCUGCAUCGCUUACAUCCGGCUCACGCAGUACAUUGACGGGCAGGGCCGGUGGAAUUCUCGGGUGCCAA | 0.603
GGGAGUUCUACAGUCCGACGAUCAGUGUUGAUACCUGCCAUGUGUGGAGACAGUGUAAAUUCUACAUGAGUGUGAAACAAGGCAAGUCUCAGACCAGCAAUAAAUUAUUCAGUUUGGCUAACCUUAUUUUGUGUGGAAUUCUCGGGUGCCAA | 0.493
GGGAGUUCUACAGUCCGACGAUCUCUUUGCUGGUUUACUCUAGGACUUCAAAGUUUGUCUGGGAUUUUUUUAUUAAAAAAAAUUGUCUUUGAGAGUUGAGCUGGCACAGUAUUCUGUCCUAUAGAUUACUGGUUGGAAUUCUCGGGUGCCAA | 0.877
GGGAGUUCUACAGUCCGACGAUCUCAUUCUGAAAUUAUUUCAUUUACCUACAGUGAAAUAAUUGUGAACUAAGUAGUCUUUCUGAAAACUGUUGGGUUCUAGGCAUUCCUGAGAAAUUGAAAGUGGCUACCUUUGGAAUUCUCGGGUGCCAA | 0.312
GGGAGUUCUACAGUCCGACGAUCUGACUUUUGAUUCCUUGAACCUUUUACUUACUUGAGGUGAGGAAAUGUCUGAUAAUCUGCAAAACAAAACCUACCAAAUGGAAUCAGGGGCGACAUCUCAGUCGGUCCGGUGGAAUUCUCGGGUGCCAA | 0.371
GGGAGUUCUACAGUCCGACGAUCACCAGUCGACACCAUUGUGUUUGACCGCGUUCCUGUCUCCUCAGCCACAUACCCUCAUCUGUGCUGUCAGUGUGUCUCUGGUGGGGCAGACUUUGCACUUACUGCAGUGCUGGAAUUCUCGGGUGCCAA | 0.404

Set 3 — method: protein binding microarray; form: double-stranded DNA, one strand shown; medium: in vitro; concentration: not given; relative to: not given; direction: higher = stronger binding
Target: Histone acetyltransferase KAT6A, winged helix 2, GST fusion (KAT6A, Homo sapiens, UniProt Q92794, residues 85-181)
Notes: 8-mer, flanks averaged, mean of 2 arrays, mostly near background
Target sequence (chain): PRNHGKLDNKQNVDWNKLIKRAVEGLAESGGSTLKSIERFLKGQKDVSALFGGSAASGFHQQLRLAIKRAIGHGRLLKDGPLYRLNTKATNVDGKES
Oligonucleotide | E-score
AACCACGA | -0.238
GTGACCAA | -0.128
TGGGCTAA | -0.0275
CATTCTGC | -0.0497
ATGGTATC | 0.0778
TATCGGAA | -0.0883
AGAGTCGC | -0.00153
TACTCATA | -0.253
GTGTTTAA | 0.0706
AGCAGAGA | 0.0107
CATTAACG | -0.0918
TGCTTCAA | 0.114
GTGCTTCA | 0.0627
CCTAGGGC | 0.13
GCGTGCCA | 0.0524
CGGTCACG | -0.0703

Set 4 — method: protein-binding microarray; form: double-stranded DNA, one strand shown; medium: in vitro; concentration: not given; direction: higher = stronger binding
Target: Protein C-ets-1 (ETS1, Homo sapiens, UniProt P14921, residues 1-441, full length assumed)
Sequence of UniProt P14921 (whole entry, looked up): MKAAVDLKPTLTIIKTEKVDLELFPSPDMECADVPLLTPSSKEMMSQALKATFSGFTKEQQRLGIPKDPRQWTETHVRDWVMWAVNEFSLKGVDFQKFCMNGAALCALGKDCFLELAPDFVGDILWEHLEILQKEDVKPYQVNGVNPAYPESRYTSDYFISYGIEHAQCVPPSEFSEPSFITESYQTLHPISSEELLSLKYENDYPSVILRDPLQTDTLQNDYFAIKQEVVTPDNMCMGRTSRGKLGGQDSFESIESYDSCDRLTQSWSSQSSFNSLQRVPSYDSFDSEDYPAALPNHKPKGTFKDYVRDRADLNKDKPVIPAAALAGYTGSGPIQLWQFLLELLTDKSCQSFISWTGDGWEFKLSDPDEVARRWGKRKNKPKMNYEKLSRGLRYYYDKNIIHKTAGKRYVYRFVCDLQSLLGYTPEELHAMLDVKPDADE
Notes: k-mer, scored over probes, only values ≥0.25
Oligonucleotide | E-score
CTCCCCGC | 0.303
CTATATCC | 0.373
CAGGACGC | 0.336
CTTCCTTC | 0.408
GAAATATC | 0.289
AGTTTCCG | 0.477
CCGGTGTC | 0.335
CTTCCGCA | 0.466
GGCGGGGA | 0.293
GCGGAAAA | 0.401
CGGATGGC | 0.411
ACTTCCAT | 0.318
CAAGTTCC | 0.326
AACATCCC | 0.312
CCTATCCG | 0.29
CGTACTTC | 0.292
TCCGCCAA | 0.356
ATCCGCAA | 0.271
AACCGGGG | 0.274
CAGGCGGA | 0.374
CGCGGAAA | 0.4
GACCGGGA | 0.369
CGTCCGTC | 0.336

Mixed results
Molecule | target | test | system | setting | scale | quantity | result
PhoQ, residues 284 288 289 292 302 303 TNASYF | PhoP, residues 12 14 15 18 19 IQFRS (Escherichia coli, UniProt P23836) | Sort-seq, refers to: YFP reporter | E. coli | PhoQ-PhoP variant library, added: 10 µM Mg2+ | relative to: high Mg2+ state, higher = stronger signaling | fold induction | 8.5

A few entries again (set 3):
Oligonucleotide | E-score
CATTCTGC | -0.0497
ATGGTATC | 0.0778
TATCGGAA | -0.0883
AGAGTCGC | -0.00153
TACTCATA | -0.253
